Published values collected from several papers.
Numbered parts are unrelated; each lists some results of a single study.

Series 1
Target: Fragile X messenger ribonucleoprotein 1, C-terminal low-complexity region (Fmr1, Mus musculus, UniProt P35922)
Method: RNA Bind-n-Seq
Molecule type: RNA
Medium: in vitro
Tested at: 200 nM
Notes: whole 134-nt RNA, ends assumed
With: 150 mM LiCl
Reference: input library
Direction: higher = stronger binding
All molecules: 7-deaza-guanosine replaces G
All sequences stand within: GGGAGUUCUACAGUCCGACGAUC … UGGAAUUCUCGGGUGUCAAGG
Strand	log2 enrichment
CACAGACAACAAACACCCACACAGACACAGAGGGAAGGGGUUGGGAUGGGGACAGGGUGCACAGCAGGGCGGGGUAGGACCCCAGCCCCU	0.163
CUGUGCUACACAUCGUAUGUACCGAAUCGGUUUUUUUGGUUUUUUUGGGGUUUUUUUGGGGAAAGUAUUAUGUUACGCCGUUCGGAUCUG	0.784
UGGGAGGUGGAUUUUGUUUAUUUUUUUAGCUGAUUUCCAGGGGUGGGAAUUUUUUUUUAAUAUGUGUCAUGAAUAAAGUUGUUUUUGAAA	0.281
UCCUGUGCUACACAUCGUAUGUACCGAAUCGGGGAAAAAGGGGAAAAAGGGGAAAAAGGGAAAGUAUUAUGUUACGCCGUUCGGAUCUGC	-0.11
AGUCCUGUGCUACACAUCGUAUGUACCGAAUCAAAUUUAAAUUUUUAAACCCCCAAAAAAGUAUUAUGUUACGCCGUUCGGAUCUGCACU	0.273
AAACAGCUCUAUAACAAAAUACAAUGCGGGUUCAUGUUAAUGUUUUUAUCUCUAACAGGUUGGUUUCAGUGCUGAUGAAACUUGGGACUC	-2.97
GCAGGAAGUAAAAACAAAUGGAAAUGCUUCGGAUAGUGGCAGGGGUGGGGAAAGCUAAGGAAAGGGUGGGAUGGGAGUGGGUAAAGAGUU	1.76
UGCAGAUUGAUGAGUAUGAUCACUCCAAGCCCAUCCAGGGGCAACAGAAGAAGCCCUUUGAGGUGCACUGGAGGAAGCACACCCUGUCCU	-1.82
UCCUGUGCUACACAUCGUAUGUACCGAAUCGGUUUUUUUGGGUUUUUUUGGUUUUUUUGGAAAGUAUUAUGUUACGCCGUUCGGAUCUGC	-0.202
CUCAAGUCCUGUGCUACACAUCGUAUGUACCGAAUCGGUUUUUGGUUUGGUGGAAAGUAUUAUGUUACGCCGUUCGGAUCUGCACUUCCA	-0.395
UGGCCCUGGUGGCAUGCGGGGAGGAAGAGGUGGCCUCAUGGAUCGUGGUGGUCCCGGUGGAAUGUUCAGAGGUGGCCGUUGUGGAGACAG	-0.841

Series 2
Target: RING finger protein unkempt homolog, zinc fingers 1-6, GST-SBP tag (UNK, Homo sapiens, UniProt Q9C0B0, residues 30-357)
Method: RNA Bind-n-Seq
Molecule type: RNA
Medium: in vitro
Tested at: not given
Notes: RNA with constant flanks, human and mouse sites, ends assumed
Reference: input RNA pool
Direction: higher = stronger binding
All sequences stand within: GGGAGUUCUACAGUCCGACGAUC … CAACAGAGGAUUGAGCAUCA
Residues (chain): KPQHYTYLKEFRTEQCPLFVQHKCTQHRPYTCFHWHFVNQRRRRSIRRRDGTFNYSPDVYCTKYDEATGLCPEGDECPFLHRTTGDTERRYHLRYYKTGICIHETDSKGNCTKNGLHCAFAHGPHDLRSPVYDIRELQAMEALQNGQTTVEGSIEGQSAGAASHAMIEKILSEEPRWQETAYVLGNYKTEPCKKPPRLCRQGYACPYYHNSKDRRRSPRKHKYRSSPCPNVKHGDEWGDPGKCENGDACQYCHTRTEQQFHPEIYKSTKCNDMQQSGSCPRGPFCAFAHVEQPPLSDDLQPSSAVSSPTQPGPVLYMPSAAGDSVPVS
Strand	bound/input enrichment
GAGGAAGAGGAGGAGGAGAGCCCCGACACAGGUGGAGAAUAUAAAUAUUCAGGAAGAGAUAGCUUGAUUUUUCUGGUUGAUGCCUCCAGGGCUAUGUUCGAAUCUCAGGGUGAAGAUGAA	0.439 ratio
CCUCCACCAAAUGCAGAUCCUAAUAUGAAGUUAUUUACAAUUCGUGGCACUCCACAACAGAUAGACUAUGCUCGGCAACUCAUAGAAGAAAAGAUUGGUGGCCCAGUAAAUCCUUUAGGG	2.26 ratio
AUUCUGCUGGGCAAUGGCACCCUGCCCGCCACCAUCCUCACCAGUCUCUUCACCGACAGCUUAGUCAAAGAAGGCAUUGCGGCCUCAUUUGCUGUCAAGCUUUUCAAAGCAUGGAUGGCA	0.123 ratio
UAAAAGACAUCCAGCCAAACUCUCAGUCUUGCCUUAACAAUGUUCCAGAGGCUGAAUAAAAUGUUUGUGGGUGAAGUCAGUUCUUCCUCCAACCAAGAACCAGAAUUCAAUGAGAAAGAA	0.169 ratio
UCUGUUCUUUUGGAUGAGAUAUUAAAGGAUCCAGAACAUCCAAACAAGGAUUACCUAAUUAACUUUGAGAUUCGGUCUCUGCGAGAUAGCCGAGCACUGAUUGAGAAGGUUGGAAUUAAA	0.13 ratio
ACAACGGUUUCCCUUUGAAGGGGACGGACAAAGCCCGAGUGACCAGCGGCGGCGGGGAGGACUAGUCCCCGGGCAGUUUGGUGCCCUGGUUGUCAGAUGUUGGAAAGCAGUAGGACGGAA	0.272 ratio
CGCAAUACUAUUGCUUCCAUUGCUGCUGGUGUACUAUUUUUUACAGGCUGGUGGAUUAUCAUAGAUGCAGCUGUUAUUUAUCCCACCAUGAAAGAUUUCAACCACUCAUACCAUGCCUGU	0.341 ratio
AUAUUCUUUGUAAUGGAUGCAGCUGAAAGAAUGUCUAUUCUACAUCAUGAUCGAGAAGUUCGCAAAGAGAAAAUGCUCAGGCAAAUGGAUAAAAUGAAAAGUCCACGAGUGGCUCUUUCA	0.218 ratio
ACAAGCUUAUCUCCUCUCCCUACCCUAAGCAACUCCUCUUUAUCUGAGCUAAGGCUUUUGAUCGUGGGGACGGGGCAUUGACCAACACUGGAGGCGCCGGCUGCAACUGUUUUAUCAGAG	0.0859 ratio
ACAAUCGUUGACACAGUGGGAUUUGGAGACCAGAUUAAUAAAGAUGACAGCUAUAAGCCUAUAGUGGAAUACAUUGACGCCCAGUUUGAGGCCUACUUGCAAGAAGAAUUGAAAAUUAAA	0.341 ratio
AAACAUGAAUGUCAAGCAAAUGGACCAGAAGAUCUCAAUCGGGCUUGUAUUGCUGAAAAGUUAGGUGGAUCCUUAAUUGUAGCCUUUGAAGGAUGCCCUGUGUAGAUUAUUCAGUGCCAC	0.518 ratio

Series 3
Organism: Saccharomyces cerevisiae
Effect on: pheromone growth arrest
Method: yeast competitive growth sequencing
Molecule type: peptide
Strain: no Cln2 overexpression
Notes: peptide tiling library
Direction: direction not given
Molecule	enrichment score
ELGMEHCEKFEISETS	0.243
AIRKMREDRWAVIAKM	0.204
VRDLSYRLVFLACCVA	-0.391
EAAPPTQEAQGETEPT	0.168
TLPYDLACTGGDFVLF	0.843
SGYLTDENEVGFRG	-0.261
NLEPNAEFDKRTEFIT	0.222
DSGFCLDSPGPLDSKE	0.931
RNRGPKLNAMLRLGVL	0.169
IFNKPECGRVQRAIFQ	-0.0948
TQERKQIHCLSEDELS	-0.314
NRLLKLFTRCLTPLVP	-0.926
IPMIAKNLMCELDE	-0.128
RRRIKLPESDSSED	1.21
ALTMEALEDPSPELME	0.186
FREFEVEKQTAEETGL	0.398
VEEEFFALRKRTPSAG	0.314
NARRSLNFGGSTGT	0.0523
DSDSDSEGGAAGGEAD	1.2

Series 4
Target: POU, POU domain (Salpingoeca helianthica)
Method: Spec-seq
Molecule type: double-stranded DNA, one strand shown
Medium: in vitro
Tested at: not given
Notes: whole probe, mean of replicates
Reference: not given
Direction: lower = stronger binding
All sequences stand within: GAGTCGTCTCGTCAGCAC … CCGTAGAGCACTCAGGTC
Target sequence (chain): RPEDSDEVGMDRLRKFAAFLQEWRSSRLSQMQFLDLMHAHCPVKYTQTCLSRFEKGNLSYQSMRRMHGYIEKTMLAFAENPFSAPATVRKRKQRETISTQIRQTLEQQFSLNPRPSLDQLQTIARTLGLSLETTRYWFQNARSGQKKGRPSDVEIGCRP
Strand	relative binding energy [ln ratio]
ATCTTCAT	1.02
ATTGTAAT	0.141
TACATAAT	0.145
TAATTAAT	-2.13
ATTAGTAT	0.397
ATTGTCAT	1.12
GTCGTAAT	0.269
ATTAATAT	0.0245
ATTTGCAT	0.716
ATATCAAT	1.07
ATCAGAAT	1.09
ATCTAAAT	0.991
ATCACCAT	1.04
ATGCTGTC	1.12
ATAGGTAT	1.32
ATCGTTAT	-0.779
ATGCTAGG	1.45
TCACTAAT	0.371
ATGCCTTC	1.32
ATGACAAT	1.15
GTGATAAT	0.491

Series 5
Target: Interferon regulatory factor 7, full length, phosphomimetic (IRF7, Homo sapiens, UniProt Q92985, residues 1-503, S101K/S471D/S472D/S475D/S476D/S477D/S483D/S484D/S487D)
Method: protein-binding microarray
Molecule type: double-stranded DNA, one strand shown
Medium: in vitro
Tested at: 250 nM
Notes: 60-bp whole probe
With: salmon DNA 0.4 mg/ml
Reference: random background probes
Direction: higher = stronger binding
All sequences stand within: GCCTAGCAC … GTCTTGATTCGCTTGACGCTGCTG
Construct (chain): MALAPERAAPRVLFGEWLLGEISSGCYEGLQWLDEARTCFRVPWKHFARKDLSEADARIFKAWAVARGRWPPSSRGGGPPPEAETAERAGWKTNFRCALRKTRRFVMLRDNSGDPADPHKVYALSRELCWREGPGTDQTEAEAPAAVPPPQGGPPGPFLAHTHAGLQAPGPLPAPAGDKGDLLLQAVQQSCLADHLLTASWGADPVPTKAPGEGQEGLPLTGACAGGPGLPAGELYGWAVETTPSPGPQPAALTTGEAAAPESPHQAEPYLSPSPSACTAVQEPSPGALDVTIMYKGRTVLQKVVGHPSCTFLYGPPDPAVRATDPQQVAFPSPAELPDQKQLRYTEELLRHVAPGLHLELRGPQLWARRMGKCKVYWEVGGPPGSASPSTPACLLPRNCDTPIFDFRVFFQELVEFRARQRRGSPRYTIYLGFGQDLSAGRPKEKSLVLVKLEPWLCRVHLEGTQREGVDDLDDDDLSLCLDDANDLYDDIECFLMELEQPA
Strand	log fluorescence [z-score]
CGGAATTTCCCTCTGCTCCTGTGCTAG	1.06
TCATTTTTTTTTTTTGGACTGTGCTAG	0.723
GACGAACAGAGTTTCGAGACGTGCTAG	3.52
TCATGCTTGTGTTTATTACTGTGCTAG	-0.152
TCATGGGTCTTGTCTGGAACTGTGCTA	-0.78
TCATCCTTTGCTTTCTCACTGTGCTAG	0.966
TCAACTTTAACTTATTCTACTGTGCTA	0.426
GACGGACTGCTTATTCTGACGTGCTAG	-0.464
TGTGTTGCAGAAACGCCATGGTGCTAG	0.374
GACGATCTCAGTCTCGAGTCGTGCTAG	1.38
CATTATATTTTAATCACATAGTGCTAG	1.07
CTAATTTCCATTTTCTAAATGTGCTAG	4.32
TTCGCTTTCTTTAACTCATTGTGCTAG	1.25
GACGGTCTCATTCTCCTGACGTGCTAG	0.575
TCAGGTCTCCCTTGAGGTTTGTGCTAG	-0.302
GACGAACTGGGCACTGGAGACGTGCTA	-0.649
TTAGGTCTCGCACTGGGTTAGTGCTAG	0.484
GACGGACTGGGGCATCGGGACGTGCTA	-1.18
TTAGAACTGAGTATCGTTTAGTGCTAG	0.84
GACGATATCAGTCTCGAAACGTGCTAG	0.742
GACGATTTCAGTTTCGAGATGTGCTAG	6.07
TTAGGTTTCCTTATCCTTTGGTGCTAG	2.42
CGGGGGTGGGGAGAGCCCCTGTGCTAG	2.86
GACGGACTGGGTTTCAGGACGTGCTAG	-0.223
CTTCCTCTTTCTCTGCTACCGTGCTAG	2.57

Excerpt of the above (series 5):
Strand	log fluorescence [z-score]
CTTCCTCTTTCTCTGCTACCGTGCTAG	2.57
TTAGAACTGAGTATCGTTTAGTGCTAG	0.84
CTAATTTCCATTTTCTAAATGTGCTAG	4.32
GACGATTTCAGTTTCGAGATGTGCTAG	6.07
TCAGGTCTCCCTTGAGGTTTGTGCTAG	-0.302
TTAGGTCTCGCACTGGGTTAGTGCTAG	0.484
TCATGGGTCTTGTCTGGAACTGTGCTA	-0.78
GACGGACTGGGTTTCAGGACGTGCTAG	-0.223
CGGAATTTCCCTCTGCTCCTGTGCTAG	1.06
GACGAACTGGGCACTGGAGACGTGCTA	-0.649
